Published values collected from several papers.
± gives the spread as reported.
14-3-3 protein epsilon: 14-3-3 protein epsilon (Homo sapiens, UniProt P62258)
Sequence of UniProt P62258 (whole entry, looked up): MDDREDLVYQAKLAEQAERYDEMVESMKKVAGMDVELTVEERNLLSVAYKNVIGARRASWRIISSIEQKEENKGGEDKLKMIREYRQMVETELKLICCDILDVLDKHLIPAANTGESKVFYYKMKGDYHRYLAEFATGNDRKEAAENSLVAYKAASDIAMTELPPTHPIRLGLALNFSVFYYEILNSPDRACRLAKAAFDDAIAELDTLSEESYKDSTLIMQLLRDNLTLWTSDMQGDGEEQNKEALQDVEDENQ
CAMK1: Calcium/calmodulin-dependent protein kinase type 1 (CAMK1, Homo sapiens, UniProt Q14012)
Sequence of UniProt Q14012 (whole entry, looked up): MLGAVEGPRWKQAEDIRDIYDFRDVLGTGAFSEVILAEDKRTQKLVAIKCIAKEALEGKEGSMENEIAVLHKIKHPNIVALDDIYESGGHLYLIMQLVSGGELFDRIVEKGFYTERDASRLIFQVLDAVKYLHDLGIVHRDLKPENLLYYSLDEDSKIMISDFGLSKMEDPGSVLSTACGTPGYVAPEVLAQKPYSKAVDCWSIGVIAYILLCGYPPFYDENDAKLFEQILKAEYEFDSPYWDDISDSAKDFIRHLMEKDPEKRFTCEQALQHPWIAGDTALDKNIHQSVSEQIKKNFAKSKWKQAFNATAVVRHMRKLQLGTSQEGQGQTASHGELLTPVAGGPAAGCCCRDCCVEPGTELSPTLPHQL
Sequence of UniProt P28335 (whole entry, looked up): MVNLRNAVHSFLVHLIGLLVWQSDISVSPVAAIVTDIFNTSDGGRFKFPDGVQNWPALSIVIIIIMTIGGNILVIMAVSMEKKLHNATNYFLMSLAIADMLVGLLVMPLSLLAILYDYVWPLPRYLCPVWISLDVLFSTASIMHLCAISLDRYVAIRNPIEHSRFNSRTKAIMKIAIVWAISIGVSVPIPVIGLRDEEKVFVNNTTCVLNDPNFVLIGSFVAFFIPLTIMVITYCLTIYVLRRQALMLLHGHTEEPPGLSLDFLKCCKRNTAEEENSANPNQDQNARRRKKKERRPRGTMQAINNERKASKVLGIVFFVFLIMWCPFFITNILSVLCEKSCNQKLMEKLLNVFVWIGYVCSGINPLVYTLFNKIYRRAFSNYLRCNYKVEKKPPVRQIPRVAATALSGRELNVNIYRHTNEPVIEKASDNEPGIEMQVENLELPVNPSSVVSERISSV
Sequence of UniProt P12821 (whole entry, looked up): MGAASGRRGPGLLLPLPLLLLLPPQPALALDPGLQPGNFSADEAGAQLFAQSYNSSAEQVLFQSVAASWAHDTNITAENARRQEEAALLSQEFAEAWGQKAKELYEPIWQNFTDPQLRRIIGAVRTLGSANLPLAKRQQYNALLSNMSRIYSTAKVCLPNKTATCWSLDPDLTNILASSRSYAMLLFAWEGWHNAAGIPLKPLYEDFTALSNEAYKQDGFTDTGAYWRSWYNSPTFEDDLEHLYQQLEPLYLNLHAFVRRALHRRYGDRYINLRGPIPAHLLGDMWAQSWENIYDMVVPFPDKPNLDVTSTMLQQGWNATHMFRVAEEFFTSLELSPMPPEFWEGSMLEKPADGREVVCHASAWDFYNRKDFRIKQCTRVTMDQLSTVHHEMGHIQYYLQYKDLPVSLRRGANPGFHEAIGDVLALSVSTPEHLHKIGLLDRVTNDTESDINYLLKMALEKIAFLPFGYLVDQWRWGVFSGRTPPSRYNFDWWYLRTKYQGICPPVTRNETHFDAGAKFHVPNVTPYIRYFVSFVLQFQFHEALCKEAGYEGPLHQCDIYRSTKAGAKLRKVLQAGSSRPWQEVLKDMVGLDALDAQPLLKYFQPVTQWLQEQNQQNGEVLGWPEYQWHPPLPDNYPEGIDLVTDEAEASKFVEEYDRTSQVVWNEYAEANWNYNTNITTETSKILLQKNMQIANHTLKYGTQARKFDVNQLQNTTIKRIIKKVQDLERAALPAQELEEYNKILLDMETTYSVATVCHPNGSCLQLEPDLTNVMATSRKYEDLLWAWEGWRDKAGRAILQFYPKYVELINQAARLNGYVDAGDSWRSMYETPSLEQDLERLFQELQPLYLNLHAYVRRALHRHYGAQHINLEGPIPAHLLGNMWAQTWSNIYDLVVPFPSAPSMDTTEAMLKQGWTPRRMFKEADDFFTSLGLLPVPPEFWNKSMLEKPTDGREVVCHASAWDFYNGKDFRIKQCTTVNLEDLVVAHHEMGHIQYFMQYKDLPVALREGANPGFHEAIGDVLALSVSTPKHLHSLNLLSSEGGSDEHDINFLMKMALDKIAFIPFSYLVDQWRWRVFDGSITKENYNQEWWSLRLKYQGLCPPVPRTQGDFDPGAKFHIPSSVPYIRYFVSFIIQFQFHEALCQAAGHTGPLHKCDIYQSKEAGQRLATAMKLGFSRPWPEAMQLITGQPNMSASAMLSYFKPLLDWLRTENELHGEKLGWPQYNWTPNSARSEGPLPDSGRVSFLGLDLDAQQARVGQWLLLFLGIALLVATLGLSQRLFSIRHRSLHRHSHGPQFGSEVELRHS
Sequence of UniProt P41143 (whole entry, unmodified, looked up): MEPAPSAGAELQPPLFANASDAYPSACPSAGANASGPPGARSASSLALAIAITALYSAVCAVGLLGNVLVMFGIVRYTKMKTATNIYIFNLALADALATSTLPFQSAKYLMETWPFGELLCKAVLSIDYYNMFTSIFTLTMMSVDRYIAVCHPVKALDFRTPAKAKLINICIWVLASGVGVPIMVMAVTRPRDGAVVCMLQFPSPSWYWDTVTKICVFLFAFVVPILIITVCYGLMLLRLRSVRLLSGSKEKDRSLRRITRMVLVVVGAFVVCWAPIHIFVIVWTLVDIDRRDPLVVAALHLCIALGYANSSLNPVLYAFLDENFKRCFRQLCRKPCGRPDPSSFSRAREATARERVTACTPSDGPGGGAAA
Sequence of UniProt Q9UKP6 (whole entry, unmodified, looked up): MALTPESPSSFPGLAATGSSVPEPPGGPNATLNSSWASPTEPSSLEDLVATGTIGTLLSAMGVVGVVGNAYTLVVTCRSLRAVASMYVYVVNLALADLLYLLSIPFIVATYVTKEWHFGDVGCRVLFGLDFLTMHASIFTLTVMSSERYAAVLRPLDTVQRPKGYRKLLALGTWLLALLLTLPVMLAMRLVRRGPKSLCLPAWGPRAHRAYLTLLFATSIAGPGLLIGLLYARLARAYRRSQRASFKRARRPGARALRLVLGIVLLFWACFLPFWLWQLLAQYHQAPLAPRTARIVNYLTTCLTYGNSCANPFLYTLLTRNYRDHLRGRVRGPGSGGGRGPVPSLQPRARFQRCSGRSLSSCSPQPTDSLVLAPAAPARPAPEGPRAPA
Sequence of UniProt P29466 (whole entry, looked up): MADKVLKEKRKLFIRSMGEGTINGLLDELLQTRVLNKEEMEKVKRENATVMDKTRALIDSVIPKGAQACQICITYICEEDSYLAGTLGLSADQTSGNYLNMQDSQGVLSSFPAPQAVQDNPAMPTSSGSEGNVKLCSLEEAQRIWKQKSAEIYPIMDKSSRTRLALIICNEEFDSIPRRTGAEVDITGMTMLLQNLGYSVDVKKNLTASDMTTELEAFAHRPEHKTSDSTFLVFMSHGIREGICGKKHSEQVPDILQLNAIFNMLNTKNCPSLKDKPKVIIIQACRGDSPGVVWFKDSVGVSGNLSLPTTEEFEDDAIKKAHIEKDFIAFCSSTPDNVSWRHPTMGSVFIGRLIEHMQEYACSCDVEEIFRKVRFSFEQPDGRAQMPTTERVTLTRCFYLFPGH
Sequence of UniProt P18825 (whole entry, looked up): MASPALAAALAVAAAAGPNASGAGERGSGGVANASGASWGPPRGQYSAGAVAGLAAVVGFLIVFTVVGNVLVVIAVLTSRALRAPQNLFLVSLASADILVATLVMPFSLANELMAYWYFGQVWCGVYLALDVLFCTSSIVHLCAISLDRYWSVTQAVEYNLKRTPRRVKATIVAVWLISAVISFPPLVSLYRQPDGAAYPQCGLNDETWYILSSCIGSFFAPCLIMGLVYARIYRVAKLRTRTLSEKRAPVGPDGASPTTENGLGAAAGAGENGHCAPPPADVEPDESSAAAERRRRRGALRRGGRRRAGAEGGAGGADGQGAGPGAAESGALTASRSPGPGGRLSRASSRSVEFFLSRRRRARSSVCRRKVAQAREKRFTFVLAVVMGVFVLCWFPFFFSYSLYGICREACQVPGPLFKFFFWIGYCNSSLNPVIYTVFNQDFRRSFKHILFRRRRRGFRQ
Sequence of UniProt Q9NQ90 (whole entry, looked up): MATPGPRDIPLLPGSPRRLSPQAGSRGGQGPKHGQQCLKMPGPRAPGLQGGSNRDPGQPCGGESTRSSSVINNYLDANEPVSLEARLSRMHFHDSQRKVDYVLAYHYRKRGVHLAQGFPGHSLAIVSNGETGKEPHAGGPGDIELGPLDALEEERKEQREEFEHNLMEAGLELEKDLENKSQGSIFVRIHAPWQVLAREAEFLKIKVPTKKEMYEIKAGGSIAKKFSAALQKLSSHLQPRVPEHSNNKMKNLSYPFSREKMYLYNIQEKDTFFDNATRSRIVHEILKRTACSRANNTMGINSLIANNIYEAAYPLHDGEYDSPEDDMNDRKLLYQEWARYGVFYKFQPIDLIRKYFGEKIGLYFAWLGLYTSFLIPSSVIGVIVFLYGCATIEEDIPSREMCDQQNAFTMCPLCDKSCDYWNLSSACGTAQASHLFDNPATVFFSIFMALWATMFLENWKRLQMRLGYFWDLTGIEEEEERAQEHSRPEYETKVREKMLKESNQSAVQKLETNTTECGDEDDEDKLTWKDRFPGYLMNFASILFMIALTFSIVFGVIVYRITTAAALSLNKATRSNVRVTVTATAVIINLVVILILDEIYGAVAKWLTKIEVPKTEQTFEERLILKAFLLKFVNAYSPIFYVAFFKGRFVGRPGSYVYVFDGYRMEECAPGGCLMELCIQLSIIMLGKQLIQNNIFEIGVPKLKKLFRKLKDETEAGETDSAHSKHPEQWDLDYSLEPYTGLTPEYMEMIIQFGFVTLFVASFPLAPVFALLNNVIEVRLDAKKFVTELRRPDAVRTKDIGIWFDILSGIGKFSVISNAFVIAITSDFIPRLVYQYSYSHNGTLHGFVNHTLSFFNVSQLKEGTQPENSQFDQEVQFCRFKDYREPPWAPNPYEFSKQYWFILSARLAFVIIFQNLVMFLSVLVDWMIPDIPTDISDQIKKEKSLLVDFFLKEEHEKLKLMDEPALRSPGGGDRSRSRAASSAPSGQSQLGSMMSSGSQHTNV

O=C1NC(=O)c2c1c1cc(F)c[n+]3c1c1c2c2cc(O)ccc2[n]1[Ru-4]312([N]=C=S)[S+]3CC[S+]1CC[S+]2CC3 (stereo not shown) has a remaining activity of 90% (Dual specificity protein kinase CLK3 (CLK3, Homo sapiens, UniProt P49761); enzyme activity; 100 nM, human enzyme, with: 10 µM ATP; relative to: untreated).
For CC(=O)N[C@@H](CCCNC(=N)N)C(=O)N[C@H](C(=O)N[C@@H](CCCCN)C(=O)N[C@@H](CO)C(=O)N[C@@H](CCCNC(=N)N)C(=O)N[C@H](C(=O)N[C@@H](Cc1c[nH]c2ccccc12)C(=O)N[C@@H](C)C(=O)N[C@@H](Cc1ccc(O)cc1)C(N)=O)[C@@H](C)OP(=O)(O)O)[C@@H](C)O, “binding free energy” read -9.58 ± 0.029 kcal/mol (14-3-3 protein epsilon; surface plasmon resonance; 298 K).
NC(=O)CC[C@H](N)C(=O)N[C@@H](CC(N)=O)C(=O)N[C@@H](CC(=O)O)C(=O)N[C@@H](Cc1ccccc1)C(=O)O has an IC50 of roughly 171000 nM (Angiotensin-converting enzyme (ACE, Homo sapiens, UniProt P12821); enzyme activity, inhibitor).
For CC(C)CC(C(=O)N1CC2(CC1C#N)C(=O)Nc1ccccc12)N(C)C(=O)c1cc2c(F)cc(F)c(F)c2[nH]1 (stereo not shown), the IC50 was greater than 100000 nM (Caspase-1 (CASP1, Homo sapiens, UniProt P29466); enzyme activity, inhibitor).
With O=C1NC2(CC2)COc2ncc(F)cc2[C@H]2COCCN2c2ccn3ncc1c3n2 the serum sodium was 146 ± 1 mmol/L (Sprague-Dawley rat, male, serum; oral, 10 mg/kg/day, end of treatment, 4-week subacute toxicity).
With O=C(N[C@@H]1c2ccccc2C[C@H]1N1CCCC1)c1ccc(-c2ccnc3[nH]ccc23)nc1 the Kd was 5 nM (Rho-associated protein kinase 2 (ROCK2, Homo sapiens, UniProt O75116); binding, competition with immobilised ligand).
For N[C@H]1CCSC1=O, the Ki was greater than 100000 nM (Carbonic anhydrase 2 (CA2, Homo sapiens, UniProt P00918); CO2 hydration activity, inhibitor, stopped-flow CO2 hydration; room temperature preincubation).
CC(C)[C@H]1NC(=O)C[C@H]2/C=C/CCSSC[C@@H](NC1=O)C(=O)N[C@H](Cc1cccc3ccccc13)C(=O)NCC(=O)O2 has an inhibition of -3.5% (Serine/threonine-protein kinase MRCK alpha (CDC42BPA, Homo sapiens, UniProt Q5VT25); enzyme activity, inhibitor; 10 µM).
COc1cc2c(cc1O)C(CCc1ccc(Cl)cc1)N(C)CC2 (stereo not shown) gave a Ki of 140 nM (Alpha-2C adrenergic receptor (ADRA2C, Homo sapiens, UniProt P18825); cell-free assay, radioligand).
CN(C)CCCN1C(=O)CSC1c1cccc(Cl)c1 (stereo not shown) gave an IC50 of 1200 nM (uncharacterized protein (Apis mellifera, UniProt A0A7M6W5G5); enzyme activity, inhibitor, Ellman; with: 1 mM acetylthiocholine).
Cc1cc(O)cc(C)c1C[C@H](N)C(=O)N[C@H](CCCNC(=N)N)C(=O)N[C@@H](Cc1ccccc1)C(=O)N(C)CC(=O)N(C)Cc1cc(C(F)(F)F)cc(C(F)(F)F)c1 has a Ki of 3.31 ± 0.65 nM (Delta-type opioid receptor (OPRD1, Homo sapiens, UniProt P41143, W284A)).
CS(C)(=O)=Nc1ccc(-c2ccc(-c3nc4cc(O[C@@H]5CO[C@H]6[C@@H]5OC[C@H]6O)[nH]c4cc3F)cc2)cc1 has an inhibition of 15% (CAMK1; enzyme activity, inhibitor; 10 µM).
CCC(C)C1OC2(CCC1C)CC1CC(C/C=C(\C)C(OC3CC(OC)C(OC4CC(OC)C(O)C(C)O4)C(C)O3)C(C)/C=C/C=C3\COC4C(O)C(C)=CC(C(=O)O1)C34O)O2 (stereo not shown) gave an IC50 of 16900 nM (Anoctamin-2 (ANO2, Homo sapiens, UniProt Q9NQ90); ion flux, inhibitor).
For CN(C)[C@H]1C[C@@]23CC[C@@]4(O2)C(=CC[C@]2(C)[C@@H](c5ccc6ccncc6c5)CC[C@H]24)C=C3[C@@H](O)[C@@H]1O, the inhibition was -10.9% (CAMK1; ATP probe labelling, inhibitor, KiNativ profiling; 0.1 µM).
CC[C@H](C)[C@H](NC(=O)[C@@H]1CCCN1C(=O)[C@@H]1CCCN1C(=O)[C@@H]1CCCN1C(=O)[C@@H]1CCCN1C(=O)[C@@H](NC(=O)[C@H](CCCNC(=N)N)NC(=O)[C@H](CO)NC(=O)[C@H](CCCCN)NC(=O)[C@H](CCCCN)NC(=O)[C@H](C)NC(=O)[C@@H](N)Cc1ccc(O)cc1)C(C)C)C(=O)N[C@@H](CC(C)C)C(=O)N[C@@H](CC(C)C)C(=O)N[C@@H](CO)C(=O)N[C@@H](CCCNC(=N)N)C(=O)O gave an IC50 of 147000 nM (Mitogen-activated protein kinase 14 (Rattus norvegicus, UniProt P70618); enzyme activity, inhibitor, fluorescence; pH 7.4).
COc1ccccc1-c1n[nH]c2nc(NC3CCN(C(=O)Cc4ccc(F)cc4F)CC3)ncc12 gave a relative abundance of 0.79 (bead binding, competition bead pull-down, refers to: LINJ.33.0870; Leishmania donovani extract; 10 µM; relative to: vehicle).
With O[C@H]1[C@H](n2cnc3c(N[C@@H](C4CCC4)C4CC4)nc(I)nc32)[C@H]2C[C@@]2(C(F)F)[C@H]1O the Kb was 3280 nM (5-hydroxytryptamine receptor 2C (HTR2C, Homo sapiens, UniProt P28335); calcium signal, antagonist).
CC(C)[C@H](NC(=O)[C@@H]1CSSC(C)(C)[C@H](NC(=O)[C@@H](N)CC(=O)O)C(=O)N[C@@H](Cc2ccccc2)C(=O)N[C@@H](Cc2c[nH]c3ccccc23)C(=O)N[C@@H](CCCCN)C(=O)N[C@@H](Cc2ccc(O)cc2)C(=O)N1)C(=O)O gave an EC50 of 0.631 nM (Urotensin-2 receptor (UTS2R, Homo sapiens, UniProt Q9UKP6, L200A); IP1 accumulation, agonist, HTRF; HEK293T cells; 1 h, 37 °C).
For CC(=O)N[C@@H](CCCNC(=N)N)C(=O)N[C@H](C(=O)N[C@@H](CCCCN)C(=O)N[C@@H](CO)C(=O)N[C@@H](CCCNC(=N)N)C(=O)N[C@H](C(=O)N[C@@H](Cc1c[nH]c2ccccc12)C(=O)N[C@@H](C)C(=O)N[C@@H](Cc1ccccc1)C(N)=O)[C@@H](C)OP(=O)(O)O)[C@@H](C)O, “binding free energy” read -10.42 ± 0.02 kcal/mol (14-3-3 protein epsilon; surface plasmon resonance; 298 K).
Cc1ccc(C)c(OCCn2cc(C(=O)O)c3ccccc32)c1 gave an EC50 of 77.6 nM (Ras-related protein Rab-7a (Canis lupus familiaris, UniProt P18067)).
CC(=O)N[C@@H](CCCNC(=N)N)C(=O)N[C@H](C(=O)N[C@@H](CCCCN)C(=O)N[C@@H](CO)C(=O)N[C@@H](CCCNC(=N)N)C(=O)N[C@H](C(=O)N[C@@H](Cc1c[nH]c2ccccc12)C(=O)N[C@@H](C)C(=O)N[C@H](C(N)=O)C(C)C)[C@@H](C)OP(=O)(O)O)[C@@H](C)O — result for “binding free energy”: -9.12 ± 0.02 kcal/mol (14-3-3 protein epsilon; surface plasmon resonance; 298 K).
The Kb of CC(=O)N[C@@H](CCCNC(=N)N)C(=O)N[C@@H](Cc1ccc(O)cc1)C(=O)N[C@@H](CCCNC(=N)NC(=O)NCCCCN)C(=O)N[C@H](CC(C)C)C(=O)N[C@@H](CCCNC(=N)N)C(=O)N[C@@H](Cc1ccc(O)cc1)C(N)=O is reported as 531 nM (Neuropeptide Y receptor type 4 (NPY4R, Homo sapiens, UniProt P50391); calcium signal, antagonist).

Some of these lines once more:
For CC(=O)N[C@@H](CCCNC(=N)N)C(=O)N[C@H](C(=O)N[C@@H](CCCCN)C(=O)N[C@@H](CO)C(=O)N[C@@H](CCCNC(=N)N)C(=O)N[C@H](C(=O)N[C@@H](Cc1c[nH]c2ccccc12)C(=O)N[C@@H](C)C(=O)N[C@@H](Cc1ccc(O)cc1)C(N)=O)[C@@H](C)OP(=O)(O)O)[C@@H](C)O, “binding free energy” read -9.58 ± 0.029 kcal/mol (14-3-3 protein epsilon; surface plasmon resonance; 298 K).
